# Published values of several laboratories.
# Protocols differ between the studies behind these lines.
SMILES,target or system,assay,system,setting,scale,endpoint,value
Cc1cc(C)c(CNC(=O)c2cc(Cl)c3c(c2C)O[C@@](C)([C@H]2CC[C@H](N(C)C)CC2)O3)c(=O)[nH]1,,,healthy Japanese male volunteers,"oral, dose not given, added: itraconazole",,TEAE incidence,12.5%
CCc1cc(C(=O)NC)c2nccc(N3CCc4c(cc(Cn5ccnc5)cc4-c4cn(C)nc4C(F)(F)F)C3=O)c2c1,,,Sprague Dawley rat,"oral, 50 mg/kg once daily, 7 days",reference: vehicle,lung weight change,9.34%
CC(C)n1c(Nc2cccnc2)nc2cnc(Nc3ccc(N4CCN(C)CC4)cc3)nc21,,refers to: antithrombin III antibodies elevated,healthy male subjects,"oral, 100 mg, study, added: gemfibrozil",,subjects with adverse event,50%
C=CC(=O)Nc1cc(Nc2nccc(-c3cn(C)c4ccccc34)n2)c(OC)cc1N(C)CCN(C)C,,storage stability,human dried blood spot,"2 h, -80 °C, MQC level",,recovery,87.3%
CO[C@H]1/C=C/O[C@@]2(C)Oc3c(C)c(O)c4c(O)c(c(/C=N/N5CCN(C)CC5)c(O)c4c3C2=O)NC(=O)/C(C)=C\C=C\[C@H](C)[C@H](O)[C@@H](C)[C@@H](O)[C@@H](C)[C@H](OC(C)=O)[C@@H]1C,,starch gel membrane permeability,Gram-negative envelope surrogate,"200 µM, 30 min, pH 7.4",,amount permeated,1.1 nmol
O=C(O)CCc1ccc(O)c(OS(=O)(=O)O)c1,,,human plasma,mean,,plasma concentration,1700 nM
Cc1noc(C)c1Cn1cc(N2C(=O)CN(Cc3cccc(O)c3)C2=O)cn1,,,pooled rat liver microsomes Sprague-Dawley,"1 µM, 120 min, pH 7.4",,remaining parent,49 % peak area
CCO[C@H]1CCN(Cc2c(OC)cc(C)c3[nH]ccc23)[C@H](c2ccc(C(=O)O)cc2)C1,,,"human healthy controls, plasma","oral, 200 mg single dose, median",,unbound AUCinf,3600 ng·h/mL
COc1ncc(-c2nc3c(n2C(C)C)[C@H](c2ccc(Cl)cc2)N(c2cc(Cl)cn(C)c2=O)C3=O)c(OC)n1,,LC-MS/MS,"human, plasma","oral, 20 mg, cycle 2 day 1, low-dose arm",,Cmax,172 ng/mL
N#Cc1ccc2c(c1)[C@H]1CCCN(C(=O)c3ccc4[nH]cnc4c3)[C@H]1C2,,,human,"10 mg, day 7",,median ACTH level,5.1 pmol/L
C[C@H]1Oc2cc(cnc2N)-c2c(nn(C)c2C#N)CN(C)C(=O)c2ccc(F)cc21,,,"human patients, plasma","oral, dose not given, cycle 2 day 1, geometric mean, added: avelumab",,"AUCtau, dose-normalized",59 ng·h/mL/mg
Cc1ccc(C)c(OCCCC(C)(C)C(=O)O)c1,,,"human, plasma","oral, dose not given, day 11 predose, geometric mean",,trough plasma concentration,1520 ng/mL
O=C(COc1ccc(Cl)cc1)NC12CC(c3nnc([C@H]4C[C@@H](OC(F)(F)F)C4)o3)(C1)C2,,,human both sexes,"oral, 260 mg once daily, 14 days",,postural dizziness participants,42.9%
CCOC(=O)CCNc1cc(N2CCc3ccccc3CC2)nc(-c2cccnc2)n1,OCI-Ly1,,,"0.1 µM, 120 h",,viability,93.6%
NC[C@H]1O[C@H](O[C@H]2[C@H](O)[C@@H](O[C@H]3O[C@H](CO)[C@@H](O)[C@H](N)[C@H]3O)[C@H](N)C[C@@H]2N)[C@H](N)C[C@@H]1O,,starch gel membrane permeability,Gram-negative envelope surrogate,"200 µM, 20 min, pH 7.4",,amount permeated,0.36 nmol
CN(CCC#N)C1CCN(C(=O)Cn2cc(NC(=O)c3cnn4cccnc34)c(-c3cc(Cl)ccc3OC(F)F)n2)CC1,,gamma scintigraphy,human,"inhalation, 1 mg single dose",reference: emitted dose,oropharyngeal deposition,9.7%
COc1ccc(C(=O)O)cc1OS(=O)(=O)O,,,human plasma,mean,,plasma concentration,2080 nM
CC(C)N(C[C@H]1O[C@@H](n2cnc3c(N)ncnc32)[C@H](O)[C@@H]1O)[C@H]1C[C@@H](CCc2nc3cc(C(C)(C)C)ccc3[nH]2)C1,OCI-Ly1,,,"0.5 µM, 120 h",,viability,140%
CC(C)c1nc(N(C)S(C)(=O)=O)nc(-c2ccc(F)cc2)c1/C=C/[C@@H](O)C[C@@H](O)CC(=O)O,,refers to: arthropod bite,healthy men,"oral, dose not given, 8 days, treatment-emergent, crossover trial",,subjects with adverse event,0%
CC(C)c1nc(CN(C)C(=O)N[C@H](C(=O)N[C@@H](Cc2ccccc2)C[C@H](O)[C@H](Cc2ccccc2)NC(=O)OCc2cncs2)C(C)C)cs1,,,"Macaca nemestrina, plasma","intravenous, time-averaged",,minimum DcNP-associated fraction,> 87%
Cn1cnc2c1c(=O)[nH]c(=O)n2C,,,"human, both sexes, plasma",,,samples above LOQ,100%
C[C@@H](N)C1CCN(S(=O)(=O)c2cccc3cnccc23)CC1,,,"healthy volunteers, fasted, plasma","oral, 25 mg",,duration of quantifiable plasma levels,≤ 2 h

# For quick reference, copied from above:
SMILES,target or system,assay,system,setting,scale,endpoint,value
C[C@@H](N)C1CCN(S(=O)(=O)c2cccc3cnccc23)CC1,,,"healthy volunteers, fasted, plasma","oral, 25 mg",,duration of quantifiable plasma levels,≤ 2 h
